Experimental data of several laboratories.
A part holds a random share of what one study measured.

Study 1
Target: RING finger protein unkempt homolog, zinc fingers 1-6, GST-SBP tag (UNK, Homo sapiens, UniProt Q9C0B0, residues 30-357)
UniProt Q9C0B0, sequence (30-357, looked up): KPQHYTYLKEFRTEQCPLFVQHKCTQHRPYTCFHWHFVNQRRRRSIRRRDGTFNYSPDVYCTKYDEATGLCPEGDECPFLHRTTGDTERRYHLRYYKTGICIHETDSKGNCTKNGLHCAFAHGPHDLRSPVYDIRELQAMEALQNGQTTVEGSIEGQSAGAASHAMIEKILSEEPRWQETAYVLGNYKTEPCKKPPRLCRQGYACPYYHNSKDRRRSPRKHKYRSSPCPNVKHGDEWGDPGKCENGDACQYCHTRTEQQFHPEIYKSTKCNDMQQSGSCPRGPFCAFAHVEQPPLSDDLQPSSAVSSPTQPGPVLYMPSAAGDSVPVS
Method: RNA Bind-n-Seq
Form: RNA
Matrix: in vitro
Tested at: not given
Setting: RNA with constant flanks, human-mouse chimeric sites, ends assumed
Reference: input RNA pool
Reading: higher = stronger binding
The bound/input enrichment of `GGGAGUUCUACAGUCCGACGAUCUGUGCCCCACAAGAUCCUACCUGAGUGGCAGCUGAAGUUGACUCCCUCCCCUUCCCUGAACCCCCCCCCACUGCCCCCCCAUCCCCCAGUGUCGGCUGAGAUGUUGCCUCUGCACGGUUCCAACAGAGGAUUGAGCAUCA` is reported as 1.32 ratio.
The bound/input enrichment of `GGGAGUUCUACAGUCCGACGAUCCUGAAAAACACAGAUAUCAAAGUUGUUGACUUUGGAAGUGCAACAUAUGAUGAUGAACAUCACAGUACUUUGGUGUCUACCCGGCACUACAGAGCUCCCGAGGUCAUUUUGGCUUUAGGUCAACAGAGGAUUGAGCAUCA` is reported as 0.388 ratio.
For `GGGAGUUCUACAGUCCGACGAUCGGACAUCUGUCAAAUUGUUAUGUUCCUGUGAAACAAGUGAACACUCUGAUACACUUCAUUUAGUUGUACAUCUGUAUUUGUAUAAUAUGUAAAUAUGUUAAUCCAAGCAAUGUGUCACUUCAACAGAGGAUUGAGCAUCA`, the bound/input enrichment was 0.258 ratio.
`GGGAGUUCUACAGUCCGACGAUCGUAUACGGUUAUCGAGGAAAGGACUGUAGAGCUAAUGUAUACCUGCUUCCCACAGGGGAGAUAGUUUAUUUUAUCGCCUCAGUGGUAGUCCUGUUUAAUUAUGAGGAGAGAACUCAGCGACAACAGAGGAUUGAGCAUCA` has a bound/input enrichment of 0.319 ratio.
With `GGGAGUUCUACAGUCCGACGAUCGAAACAUUUAAAUUUAAAGAAGCUGUUGUUCUAGGAAGCACGGACUUCCUAGAAGAUGAUAUAGAGAAAAUUGUAGAAGAACUGGGGAAAGAGUAUAAGGGCAACGCCUACCAUCUGAUGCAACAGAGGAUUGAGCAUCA` the bound/input enrichment was 1.17 ratio.
`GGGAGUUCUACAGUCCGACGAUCUACUCAACUUUCUUGCCACAUUUUGAAUUCCAAGACAUUAUCCCUCCAGAUGACUUCCUAACGAGUGAUGAAGAGCAAGAUUCCGUUUUAUUUGGAACUAUGAGAGGACAAGUUGUUGGACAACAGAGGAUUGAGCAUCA` gave a bound/input enrichment of 0.186 ratio.
`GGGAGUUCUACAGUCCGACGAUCAGAAAGCAAAACUUGGAAAGAUUUAAGAAAGGAGAUGUAAGAUUCUUGAUUUGCACAGAUGUAGCUGCUAGAGGGAUUGAUAUCCAUGGCGUUCCUUAUGUGAUCAACGUCACCCUGCCUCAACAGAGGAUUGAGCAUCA` has a bound/input enrichment of 0.3 ratio.
The bound/input enrichment of `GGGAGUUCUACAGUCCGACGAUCUGUGCAUAUGAUGCUUGGAGAUGGUUUUGCAAAAGCAGAAAUCGCUGCAAGGUAAUCACAAUAGAUAAAAGUGGUAUUUUAAACCUUUGAAAUAAAUGGAUGUAACUGUACCUUGGUACACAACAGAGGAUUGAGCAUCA` is reported as 0.745 ratio.
The bound/input enrichment of `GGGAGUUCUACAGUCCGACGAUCUAACCACAUCAAGAUGGUUGGAAAGCUGAAGCAGAACUUACUAUUGGCGUGUCUGGUGAUUAGUUCUGUGACCGUGUUUUACCUGGGCCAGCAUGCCAUGGAGUGCCAUCACCGAAUAGACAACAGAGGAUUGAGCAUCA` is reported as 0.19 ratio.
`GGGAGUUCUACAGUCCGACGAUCCAGCCUCAGAGCCCAGACUUCCUGGAUAUCACCAACCCUAAAGCGGUAUUAGAAAAUGCAUUGAGAAACUUCGCCUGUCUGACGACUGGAGAUGUGAUUGCUAUCAACUACAAUGAGAAGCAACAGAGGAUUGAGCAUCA` gave a bound/input enrichment of 0.646 ratio.
`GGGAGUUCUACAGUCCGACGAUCAAUUUCCGCAACUGUUUUUUAGACAUUCACAUCAGACUUACAGAGCACCUGGCCACAUUCUAGUUUUGUGUUAUUUCUCAGCUAUGGAUAUGAUCAAAUGAGAACACUGCUUAACUAAUGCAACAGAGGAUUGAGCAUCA` has a bound/input enrichment of 0.604 ratio.

Study 2
Substance: PhoQ, residues 284 288 289 292 302 303 SMMNNA
Method: Sort-seq
Refers to: YFP reporter
Matrix: E. coli
Setting: PhoQ-PhoP variant library
Added: 10 µM Mg2+
Reference: high Mg2+ state
Reading: higher = stronger signaling
The fold induction was 1.28 (PhoP, residues 12 14 15 18 19 SHWTV (Escherichia coli, UniProt P23836)).
PhoP, residues 12 14 15 18 19 QYCSL (Escherichia coli, UniProt P23836) — fold induction: 7.81.
The fold induction was 0.609 (PhoP, residues 12 14 15 18 19 STHWV (Escherichia coli, UniProt P23836)).

Study 3
Target: Prothrombin, mature alpha-thrombin (F2, Homo sapiens, UniProt P00734)
Method: aptamer microarray, sandwich
Form: DNA with 2'F-ANA
Matrix: in vitro
Tested at: 200 nM
Setting: whole 15-mer aptamer, many near background
Added: Cy3 exosite-II aptamer, 400 nM
Reading: higher = stronger binding
Oligonucleotide: GGTTGGTGTGGTTGG
`2'F-ANA at 1 4 6 8 9 13`: “mean fluorescence intensity” 76.9 a.u.
Under “mean fluorescence intensity”, `2'F-ANA at 1 3 8 9 13 14 15` is recorded as 83.6 a.u.
For `2'F-ANA at 3 7 8 9 10 11 13 14`, “mean fluorescence intensity” read 378 a.u.
`2'F-ANA at 3 7 10 11 14 15`: “mean fluorescence intensity” 423 a.u.
Under “mean fluorescence intensity”, `2'F-ANA at 1 3 5 10 11 15` is recorded as 49.8 a.u.
`2'F-ANA at 1 4 6 8 10` — result for “mean fluorescence intensity”: 73 a.u.
For `2'F-ANA at 2 3 5 6 8 12 13 15`, “mean fluorescence intensity” read 195 a.u.
`2'F-ANA at 5 11 12 15`: “mean fluorescence intensity” 123 a.u.
`2'F-ANA at 1 3 5 7 8 10 12 13 15` — result for “mean fluorescence intensity”: 48.1 a.u.
`2'F-ANA at 1 2 3 4 7 8 11 12 13 14 15` — result for “mean fluorescence intensity”: 81.8 a.u.
For `2'F-ANA at 3 4 9 12 14 15`, “mean fluorescence intensity” read 366 a.u.
`2'F-ANA at 4 5 6 7 11 12 14`: “mean fluorescence intensity” 45 a.u.
`2'F-ANA at 3 4 5 6 7 9 10 12 13 14 15` — result for “mean fluorescence intensity”: 51.9 a.u.
For `2'F-ANA at 1 2 3 7 8 13 14`, “mean fluorescence intensity” read 91.3 a.u.

Study 4
Target: Histone acetyltransferase KAT6A, winged helix 2, GST fusion (KAT6A, Homo sapiens, UniProt Q92794, residues 85-181)
Method: protein binding microarray
Form: double-stranded DNA, one strand shown
Matrix: in vitro
Tested at: not given
Setting: 8-mer, flanks averaged, mean of 2 arrays, mostly near background
Reference: not given
Reading: higher = stronger binding
Residues (chain): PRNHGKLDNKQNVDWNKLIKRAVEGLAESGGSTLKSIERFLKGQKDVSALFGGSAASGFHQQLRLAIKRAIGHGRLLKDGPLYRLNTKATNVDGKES
For `CGAGGATA`, the E-score was 0.00457.
`ACGTGCAC` has an E-score of -0.291.
`GAGAACTC` has an E-score of -0.102.
For `TAACGCGA`, the E-score was -0.0263.
With `ATCTCTGG` the E-score was 0.101.
`CGATCGTA` gave an E-score of -0.0881.
`CAAGGACC` has an E-score of 0.000795.
`GATTGTGA` gave an E-score of 0.0244.
The E-score of `AGTCCCCC` is reported as -0.229.
With `GATAGGGA` the E-score was -0.0364.
`GCCAAGGC` gave an E-score of -0.00996.
For `GGGATTGA`, the E-score was 0.00494.
`CCAGCTGA` has an E-score of 0.102.
The E-score of `CAGATCGC` is reported as 0.116.
`AGGACCCA` has an E-score of -0.129.
`CCACTGAG` gave an E-score of -0.0137.

Repeated from above (study 4):
`CAAGGACC` has an E-score of 0.000795.
For `GGGATTGA`, the E-score was 0.00494.
The E-score of `CAGATCGC` is reported as 0.116.
`ACGTGCAC` has an E-score of -0.291.
`CCACTGAG` gave an E-score of -0.0137.
